Measurements collected from several papers.
Protocols differ between the studies behind these lines. Numbers after ± are the reported error.
rep papain-like protease: Replicase polyprotein 1ab, papain-like protease (rep, Severe acute respiratory syndrome-related coronavirus, UniProt P0C6X7)
rep main protease: Replicase polyprotein 1ab, main protease (rep, Severe acute respiratory syndrome-related coronavirus, UniProt P0C6X7)
OPRK1: Kappa-type opioid receptor (OPRK1, Homo sapiens, UniProt P41145)
Chain of UniProt P41145 (whole entry, looked up): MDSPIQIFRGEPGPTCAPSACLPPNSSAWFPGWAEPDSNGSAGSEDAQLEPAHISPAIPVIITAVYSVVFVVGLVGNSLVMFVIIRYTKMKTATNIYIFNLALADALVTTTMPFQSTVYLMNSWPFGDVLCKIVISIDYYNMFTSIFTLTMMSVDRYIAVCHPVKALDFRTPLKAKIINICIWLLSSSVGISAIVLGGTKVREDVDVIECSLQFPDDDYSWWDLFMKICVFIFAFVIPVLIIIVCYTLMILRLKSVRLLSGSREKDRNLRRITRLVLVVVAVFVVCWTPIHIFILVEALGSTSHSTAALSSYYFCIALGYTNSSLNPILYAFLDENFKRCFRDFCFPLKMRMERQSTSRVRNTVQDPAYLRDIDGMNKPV
Chain of UniProt P35372 (whole entry, looked up): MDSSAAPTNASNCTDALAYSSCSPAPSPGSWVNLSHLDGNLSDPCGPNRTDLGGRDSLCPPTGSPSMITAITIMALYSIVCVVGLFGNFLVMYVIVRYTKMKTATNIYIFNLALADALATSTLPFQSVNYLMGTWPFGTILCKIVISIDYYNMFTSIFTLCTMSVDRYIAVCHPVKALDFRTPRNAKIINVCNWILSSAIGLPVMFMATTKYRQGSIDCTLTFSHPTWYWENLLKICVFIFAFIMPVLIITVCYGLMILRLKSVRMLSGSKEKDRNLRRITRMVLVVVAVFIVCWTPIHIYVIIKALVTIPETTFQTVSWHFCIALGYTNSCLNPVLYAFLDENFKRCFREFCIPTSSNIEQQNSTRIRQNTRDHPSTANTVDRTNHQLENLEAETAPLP

`Cc1ccc(C(=O)NCc2ccc(C)c(C(=O)N[C@H](C)c3cccc4ccccc34)c2)cc1Br` gave an IC50 of 0.32 ± 0.05 µM (rep papain-like protease; enzyme activity, inhibitor).
`CCOC(=O)C=CC(CC1CCNC1=O)NC(=O)C(Cc1ccccc1)NC(=O)C=Cc1ccc2c(c1)OCO2` (stereo not drawn) gave an IC50 of 10 µM (rep main protease; enzyme activity, inhibitor).
`CCC(C(=O)Nc1ccccc1F)n1c(SCc2ccc(F)cc2)nc2ncccc21` (stereo not drawn) has an IC50 of over 20 µM (rep papain-like protease; enzyme activity).
`CCOC(=O)/C=C/C(Cc1ccccc1)NC(=O)[C@@H](CC(=O)C(NC(=O)c1cc(C)on1)C(C)C)Cc1ccccc1` (stereo partly drawn) has an IC50 of 13 µM (rep main protease; enzyme activity, inhibitor).
The IC50 of `C=CC(=O)N1CCN(c2cc(-c3ccc(C4CCC4)cc3)ncc2C(=O)N[C@H](Cc2ccccc2)C(=O)NC)C(C)C1` (stereo partly drawn) is reported as over 100 µM (rep main protease; enzyme activity, inhibitor).
The IC50 of `CCC(C(=O)Nc1ccccc1OC)n1cccc2nc(SCc3ccc(F)cc3)nc1-2` (stereo not drawn) is reported as 10.2 ± 0.69 µM (rep papain-like protease; enzyme activity).
`CCOC(=O)/C=C/C(Cc1ccccc1)NC(=O)[C@H](Cc1ccc(F)cc1)NC(=O)C(NC(=O)OCc1ccccc1)C(C)C` (stereo partly drawn) has an IC50 of 11 µM (rep main protease; enzyme activity, inhibitor).
`CCC(C(=O)Nc1ccccc1)n1cccc2nc(SCc3ccc(F)cc3)nc1-2` (stereo not drawn) gave an IC50 of 16.5 ± 2.26 µM (rep papain-like protease; enzyme activity).
For `CCCCCCCCCCCCCCCC(=O)N[C@@H](CCC(=O)NCCOCCOCCC(=O)NCCOCCOCCC(=O)NCCCC[C@H](NC(=O)[C@H](CC(=O)O)NC(=O)[C@H](CC(C)C)NC(=O)[C@H](Cc1ccc(O)cc1)NC(=O)[C@H](CCCCN)NC(=O)[C@H](CO)NC(=O)[C@H](Cc1ccc(O)cc1)NC(=O)[C@H](CC(=O)O)NC(=O)[C@H](CO)NC(=O)[C@@H](NC(=O)[C@H](Cc1ccccc1)NC(=O)[C@@H](NC(=O)CNC(=O)[C@H](CCC(N)=O)NC(=O)[C@@H](CO)NC(=O)[C@@H](N)Cc1c[nH]cn1)[C@@H](C)O)[C@@H](C)O)C(=O)N[C@@H](CCCNC(=N)N)C(=O)N[C@@H](CCCNC(=N)N)C(=O)N[C@@H](C)C(=O)N[C@@H](CCC(N)=O)C(=O)N[C@@H](CC(=O)O)C(=O)N[C@@H](Cc1ccccc1)C(=O)N[C@H](C(=O)N[C@@H](CCC(N)=O)C(=O)N[C@@H](Cc1c[nH]c2ccccc12)C(=O)N[C@@H](CC(C)C)C(=O)N[C@@H](CC(C)C)C(=O)N[C@@H](CC(N)=O)C(=O)N[C@H](C(=O)NCC(=O)NCC(=O)N1CCC[C@H]1C(=O)N[C@@H](CO)C(=O)N[C@@H](CO)C(=O)NCC(=O)N[C@@H](C)C(=O)N1CCC[C@H]1C(=O)N1CCC[C@H]1C(=O)N1CCC[C@H]1C(=O)N[C@@H](CO)C(N)=O)[C@@H](C)O)C(C)C)C(=O)O`, “serum enzyme activity” read 161 ± 57 U/L (item: CK; rhesus monkey, male; subcutaneous, 20 µg/kg once daily, 28 days).
For `Oc1cc(O)cc(Oc2c(O)cc(O)cc2Oc2c(O)cc(O)cc2O)c1`, the IC50 was 165 µM (rep main protease; enzyme activity, inhibitor).
`C=CCC(NC(=O)C1CN(C(=O)C(CC(=C)C)NC(=O)C=C)CC1c1cccc(C(F)(F)F)c1)C(=O)NC` (stereo not drawn) gave an IC50 of over 100 µM (rep main protease; enzyme activity, inhibitor).
The Ki of `CC(C)C[C@H](NC(=O)[C@H](CO)NC(=O)[C@H](CCCCN)NC(=O)[C@H](CC(C)C)NC(=O)[C@H](C)NC(=O)[C@H](CCCCN)NC(=O)[C@H](CCC(=O)O)NC(=O)CNC(=O)[C@H](CC(C)C)NC(=O)[C@H](CC(N)=O)NC(=O)[C@@H]1CCCN1C(=O)[C@H](CC(C)C)NC(=O)[C@H](Cc1ccccc1)NC(=O)CNC(=O)[C@H](NC(=O)[C@@H](N)Cc1ccc(O)cc1)[C@H](C)O)C(N)=O` is reported as 0.02 µM (OPRK1; ligand displacement, radioligand; pH 7.5, cell membranes).
`CCCC(C(=O)Nc1ccccc1C)n1c(SCc2ccc(F)cc2)nc2cccnc21` (stereo not drawn) gave an IC50 of over 20 µM (rep papain-like protease; enzyme activity).
`COc1cc(C[S+]([O-])c2nc3cccnc3s2)oc(=O)c1` (stereo not drawn) gave an IC50 of under 10 µM (rep main protease; enzyme activity, inhibitor).
The IC50 of `CCC(C(=O)Nc1cccc(F)c1)n1c(SCc2ccc(F)cc2)nc2ncccc21` (stereo not drawn) is reported as over 20 µM (rep papain-like protease; enzyme activity).
The Ki of `CC(C)C[C@H](NC(=O)[C@H](CO[C@@H]1O[C@H](CO)[C@@H](O)[C@H](O)[C@H]1O)NC(=O)[C@H](CCCCN)NC(=O)[C@H](CC(C)C)NC(=O)CNC(=O)[C@H](CCCCN)NC(=O)[C@H](CCC(=O)O)NC(=O)CNC(=O)[C@H](CC(C)C)NC(=O)[C@H](CC(N)=O)NC(=O)[C@@H]1CCCN1C(=O)[C@H](CC(C)C)NC(=O)[C@H](Cc1ccccc1)NC(=O)CNC(=O)[C@H](NC(=O)[C@@H](N)Cc1ccc(O)cc1)[C@H](C)O)C(N)=O` is reported as 0.0044 µM (OPRK1; ligand displacement, radioligand; pH 7.5, cell membranes).
`CCC(C(=O)Nc1ccc(C)cc1)n1c(SCc2ccc(F)cc2)nc2ncccc21` (stereo not drawn) gave an IC50 of over 20 µM (rep papain-like protease; enzyme activity).
For `CCOC(=O)/C=C/C(C[C@@H]1CCNC1=O)NC(=O)[C@H](Cc1ccccc1)NC(=O)C(NC(=O)c1cc(C)on1)C(C)C` (stereo partly drawn), the IC50 was 80 µM (rep main protease; enzyme activity, inhibitor).
For `CN(C)c1ccc(/C=C/C(=O)N[C@@H](Cc2ccccc2)C(=O)N[C@H](C=O)C[C@@H]2CCNC2=O)cc1`, the IC50 was 0.5 µM (rep main protease; enzyme activity, inhibitor).
The IC50 of `C=CC(=O)NC(CC(=C)C)C(=O)N1CC(C(=O)NC(CCSC)C(=O)NC)C(c2cccc(C(F)(F)F)c2)C1` (stereo not drawn) is reported as over 100 µM (rep main protease; enzyme activity, inhibitor).
For `CCOC(=O)/C=C/C(Cc1ccccc1)NC(=O)[C@H](Cc1ccccc1)NC(=O)C(NC(=O)c1cc(C)on1)C(C)C` (stereo partly drawn), the IC50 was 30 µM (rep main protease; enzyme activity, inhibitor).
For `CCC(C(=O)Nc1ccccc1Cl)n1cccc2nc(SCc3ccc(F)cc3)nc1-2` (stereo not drawn), the IC50 was 14.5 ± 1.24 µM (rep papain-like protease; enzyme activity).
`Cc1cc(O)cc(C)c1C[C@H](N)C(=O)NCC(=O)NCC(=O)N[C@@H](Cc1ccccc1)C(=O)N[C@H](C(=O)NCC(=O)N[C@@H](C)C(=O)N[C@@H](CCCNC(=N)N)C(=O)N[C@@H](CCCCN)C(=O)N[C@@H](CO)C(=O)N[C@@H](C)C(=O)N[C@@H](CCCNC(=N)N)C(=O)N[C@@H](CCCCN)C(N)=O)[C@@H](C)O` gave an EC50 of 0.00158 µM (OPRM1 (Homo sapiens, UniProt P35372); G-protein interaction, agonist, BRET, item: Gβ1; SH-SY5Y cell membranes; 15 min, room temperature).
`CCC[C@H](NC(=O)[C@H](CC(C)C)NC(=O)OCc1ccccc1)C(=O)C(=O)NCc1ccccn1` has an IC50 of 0.6 µM (rep main protease; enzyme activity, inhibitor).
`O=C(/C=C/c1ccc2c(c1)OCO2)N[C@@H](Cc1ccccc1)C(=O)N[C@H](CO)C[C@@H]1CCNC1=O` has an IC50 of over 25 µM (rep main protease; enzyme activity, inhibitor).
For `CCOC(=O)/C=C/C(C[C@@H]1CCNC1=O)NC(=O)[C@@H](CC(=O)C(NC(=O)OCc1ccccc1)C(C)C)Cc1ccc(F)cc1` (stereo partly drawn), the IC50 was over 100 µM (rep main protease; enzyme activity, inhibitor).
`Cc1ccc(C(=O)NCc2ccc(C)c(C(=O)N[C@H](C)c3cccc4ccccc34)c2)cc1Cl` has an IC50 of 0.28 ± 0.04 µM (rep papain-like protease; enzyme activity, inhibitor).
For `N#CC1=C(N)OC2=C(c3sc(N)c(C#N)c3CC2)C1c1ccccc1Cl` (stereo not drawn), the IC50 was 0.39 ± 0.25 µM (Replicase polyprotein 1ab, nsp14 (rep, Severe acute respiratory syndrome-related coronavirus, UniProt P0C6X7); enzyme activity, inhibitor).
`CCOC(=O)C=CC(Cc1ccccc1)NC(=O)C(Cc1ccccc1)NC(=O)C(NC(=O)C=Cc1ccc2c(c1)OCO2)C(C)C` (stereo not drawn) gave an IC50 of over 10 µM (rep main protease; enzyme activity, inhibitor).
`O=[N+]([O-])c1ccc(O)c(O)c1` gave an IC50 of 427 µM (rep papain-like protease; enzyme activity, inhibitor).

A few entries again:
The IC50 of `C=CC(=O)N1CCN(c2cc(-c3ccc(C4CCC4)cc3)ncc2C(=O)N[C@H](Cc2ccccc2)C(=O)NC)C(C)C1` (stereo partly drawn) is reported as over 100 µM (rep main protease; enzyme activity, inhibitor).
`Cc1ccc(C(=O)NCc2ccc(C)c(C(=O)N[C@H](C)c3cccc4ccccc34)c2)cc1Br` gave an IC50 of 0.32 ± 0.05 µM (rep papain-like protease; enzyme activity, inhibitor).
